Experimental data pooled from the literature.
Lines come from different studies, so protocols differ. ± marks the error that the study gave.
Organism: Escherichia coli

Structure (SMILES)	test	test system	setting	how to read	MIC
CC(C)=CCc1cc2c(cc1O)OCc1c-2oc2c(CC=C(C)C)c(O)ccc12		TISTR 780			128 µg/mL
CCCCCCCCCCCCCCN1C(=O)/C(=N\NC(=N)N)c2cc(C)ccc21	broth microdilution	25922	18 h, 37 °C		> 192 µg/mL
COc1ccc2ccc3c(c2c1)C=[N+]1C2CCCCC2[N+]2=Cc4ccc(F)cc4[O][Au-]21[O]3.F[P-](F)(F)(F)(F)F (centres unmarked)	bacterial growth, broth microdilution	carbapenem-resistant	24 h		20 µM
CCCCCCCCN1C(=O)/C(=N\NC(=N)N)c2cc(C)ccc21	microbial growth, broth dilution		18 h		12 µg/mL
CC(C)C[C@@H](NC(=O)[C@@H](CC(C)C)NC(=O)[C@@H](CCCCN)NC(=O)[C@@H](CCCCNC(=O)[C@@H](CC(C)C)NC(=O)[C@@H](CC(C)C)NC(=O)[C@@H](CCCCNC(=O)[C@@H](CC(C)C)NC(=O)[C@@H](CCCCN)NC(=O)[C@@H](CCCCNC(=O)[C@@H](CC(C)C)NC(=O)[C@H](N)CCCCN)NC(=O)[C@@H](CC(C)C)NC(=O)[C@H](N)CCCCN)NC(=O)[C@@H](CC(C)C)NC(=O)[C@@H](CCCCN)NC(=O)[C@@H](CCCCNC(=O)[C@@H](CC(C)C)NC(=O)[C@H](N)CCCCN)NC(=O)[C@@H](CC(C)C)NC(=O)[C@H](N)CCCCN)NC(=O)[C@@H](CC(C)C)NC(=O)[C@@H](CC(C)C)NC(=O)[C@@H](CCCCNC(=O)[C@@H](CC(C)C)NC(=O)[C@@H](CCCCN)NC(=O)[C@@H](CCCCNC(=O)[C@@H](CC(C)C)NC(=O)[C@H](N)CCCCN)NC(=O)[C@@H](CC(C)C)NC(=O)[C@H](N)CCCCN)NC(=O)[C@@H](CC(C)C)NC(=O)[C@@H](CCCCN)NC(=O)[C@@H](CCCCNC(=O)[C@@H](CC(C)C)NC(=O)[C@H](N)CCCCN)NC(=O)[C@@H](CC(C)C)NC(=O)[C@H](N)CCCCN)C(N)=O	broth microdilution	W3110	37 °C		8 µg/mL
CSC1COC(=O)N1/N=C/c1ccc([N+](=O)[O-])o1 (centres unmarked)	microbial growth, broth dilution	ATCC25922	18 h		25 µg/mL
CC(CCCOC(=O)CCC[N+](C)(C)C)C1CCC2C3C(OC(=O)CCC[N+](C)(C)C)CC4CC(OC(=O)CCC[N+](C)(C)C)CCC4(C)C3CC(OC(=O)CCC[N+](C)(C)C)C12C (centres unmarked)	microbial growth, broth dilution	ATCC25922	16 h		62.5 µg/mL
N=C(N)NCCC[C@H](NC(=O)[C@H](Cc1c[nH]c2ccccc12)NC(=O)[C@H](CCC(N)=O)NC(=O)[C@H](Cc1c[nH]c2ccccc12)NC(=O)[C@H](CCCNC(=N)N)NC(=O)[C@@H](N)CCCNC(=N)N)C(=O)NCCCC[C@H](NC(=O)[C@H](CCCNC(=N)N)NC(=O)[C@H](Cc1c[nH]c2ccccc12)NC(=O)[C@H](CCC(N)=O)NC(=O)[C@H](Cc1c[nH]c2ccccc12)NC(=O)[C@H](CCCNC(=N)N)NC(=O)[C@@H](N)CCCNC(=N)N)C(=O)NCCCCCC(=O)N[C@@H](CSSC[C@H](NC(=O)CCCCCNC(=O)[C@H](CCCCNC(=O)[C@H](CCCNC(=N)N)NC(=O)[C@H](Cc1c[nH]c2ccccc12)NC(=O)[C@H](CCC(N)=O)NC(=O)[C@H](Cc1c[nH]c2ccccc12)NC(=O)[C@H](CCCNC(=N)N)NC(=O)[C@@H](N)CCCNC(=N)N)NC(=O)[C@H](CCCNC(=N)N)NC(=O)[C@H](Cc1c[nH]c2ccccc12)NC(=O)[C@H](CCC(N)=O)NC(=O)[C@H](Cc1c[nH]c2ccccc12)NC(=O)[C@H](CCCNC(=N)N)NC(=O)[C@@H](N)CCCNC(=N)N)C(N)=O)C(N)=O	broth microdilution	ATCC 43827	24 h, 37 °C		5 µM
NC[C@H]1OB(O)c2c(OCCO)cccc21		ATCC 25922	cation-adjusted Mueller-Hinton		3.1 µM
COc1c(CC=C(C)C)c(O)cc2c1-c1oc3c(CC=C(C)C)c(O)ccc3c1CO2		TISTR 780			128 µg/mL
CC(C)C[C@H](NC(=O)[C@H](CC(C)C)NC(=O)[C@H](CCCCN)NC(=O)[C@H](CC(C)C)NC(=O)[C@H](CC(C)C)NC(=O)[C@H](CCCCN)NC(=O)[C@H](CCCCN)NC(=O)[C@H](CC(C)C)NC(=O)[C@H](CC(C)C)NC(=O)[C@H](CCCCN)NC(=O)[C@H](CCCCN)NC(=O)[C@H](CC(C)C)NC(=O)[C@H](CC(C)C)NC(=O)[C@H](CCCCN)NC(=O)[C@@H](N)CC(C)C)C(N)=O		ATCC 8937, RPMI medium	24 h, 37 °C		3.7 µM
Oc1c(Br)ccc2cccnc12	microbial growth, agar dilution	ATCC25922			35.7 µM
CC1OCC2OC(OC3C(N)CC(N)C(O)C3OC3OC(CO)C(OC4OC(CN)C(O)C(O)C4N)C3O)C(N)C(O)C2O1 (centres unmarked)	broth microdilution	clinical isolate AG 002			128 µg/mL
COc1ccc2ccc3c(c2c1)C=[N+]1C2CCCCC2[N+]2=Cc4cc(C(C)(C)C)cc(C(C)(C)C)c4[O][Au-]21[O]3.F[P-](F)(F)(F)(F)F (centres unmarked)	bacterial growth, broth microdilution	carbapenem-resistant	24 h		> 20 µM
CC(=O)c1ccc2c(c1)sc1nc(=O)c(C#N)cn12	microbial growth, broth dilution				< 49 µg/mL
CO[C@H]1[C@H](O)[C@@H](N)[C@@H](O[C@H]2[C@H](O[C@@H]3O[C@H](CO)[C@@H](O[C@H]4O[C@@H](CN)[C@@H](O)[C@H](O)[C@H]4N)[C@H]3O)[C@@H](O)[C@H](N)C[C@@H]2N)O[C@@H]1CO	broth microdilution	clinical isolate AG 055			> 128 µg/mL
C[C@H]1COc2c(N3CCN(C)CC3)c(F)cc3c(=O)c(C(=O)O)cn1c23	microbial growth, broth dilution	ATCC25922			50 µM
c1ccc(CN2CCOCCOCCN(CCCCCCCCCCN3CCOCCOCCN(CCCCCCCCCCN4CCOCCOCCN(Cc5ccccc5)CCOCCOCC4)CCOCCOCC3)CCOCCOCC2)cc1		Tol-			13 µM
CN1CCC(NCCC2(Cc3ccc(Cl)cc3)CCCCC2)CC1	microbial growth	K12	10 h		50 µM

Structure (SMILES)	test	test system	setting	how to read	MIC
COc1ccc2ccc3c(c2c1)C=[N+]1C2CCCCC2[N+]2=Cc4c(OC)cccc4[O][Au-]21[O]3.F[P-](F)(F)(F)(F)F (centres unmarked)	bacterial growth, broth microdilution	carbapenem-resistant	24 h		> 20 µM
CCOC(=O)c1ccc2c(c1)n(CC)[c]([Au-][Cl])[n+]2CC	broth dilution	DSM 1116	20 h, 37 °C		50.1 ± 16.7 µM
CCN(CC)CCCN1/C(=C/c2cc(C)[n+](C)c3ccccc23)Sc2ccccc21	microbial growth, broth dilution	ATCC 8739, ATCC8739			4 µg/mL
CCC(O)CC#Cc1ccc(-n2nnc(/C(C)=N\NC(=N)N)c2C)cc1 (centres unmarked)	microbial growth, broth dilution	BW25113			> 64 µg/mL
COc1cc(OC)c2c(c1)C(=O)c1cc3oc(=O)cc(-c4ccc(Cl)cc4)c3c(O)c1C2=O	microbial growth				32 µg/mL
COc1ccc(NC(=O)C2C(=O)C(c3ccccc3)c3ccc4c(c32)C(=O)c2ccccc2C4=O)cc1 (centres unmarked)	microbial growth				> 100 µg/mL
NC[C@@H]1O[C@H](O[C@H]2[C@@H](O)[C@H](O[C@@H]3[C@@H](O)[C@H](N)C[C@H](N)[C@H]3O[C@H]3O[C@H](CO)[C@@H](OCC(O)CO)[C@H](O)[C@H]3N)O[C@@H]2CO)[C@H](N)[C@@H](O)[C@@H]1O (some centres unmarked)	broth microdilution	clinical isolate AG 055			16 to 32 µg/mL
CCn1cc(/C=C/c2ccc3ccccc3[n+]2CC)c2ccccc21	microbial growth, broth dilution	780			4 µg/mL
COc1ccc2ccc3c(c2c1)C=[N+]1C2CCCCC2[N+]2=Cc4c(F)cccc4[O][Au-]21[O]3.F[P-](F)(F)(F)(F)F (centres unmarked)	bacterial growth, broth microdilution	carbapenem-resistant clinical isolate	24 h		> 20 µM
O=C1OCC(NCc2ccccc2)N1/N=C/c1ccc([N+](=O)[O-])o1 (centres unmarked)	microbial growth, broth dilution	ATCC25922	18 h		3.12 µg/mL
CC(=O)[O][Ag]=[c]1n(C)ccn1CC(O)c1ccccc1 (centres unmarked)	broth dilution	ATCC 25922	18 h, 37 °C		10 µg/mL
COc1ccc2c(c1)[O][Au-]13[O]c4ccc5ccc(OC)cc5c4C=[N+]1C1CCCCC1[N+]3=C2.F[P-](F)(F)(F)(F)F (centres unmarked)	bacterial growth, broth microdilution	carbapenem-resistant	24 h		> 20 µM
CC1C(=O)NC(=O)N1/N=C/c1ccc([N+](=O)[O-])o1 (centres unmarked)	microbial growth, broth dilution	ATCC25922	18 h		6.25 µg/mL
COc1c(NC(=O)c2ccc(NC(=O)c3ccc(NC(=O)[C@H](CC#N)NC(=O)c4ccc(NC(=O)/C(C)=C/c5ccc(O)cc5)cc4)cc3)c(OC)c2O)ccc(C(=O)O)c1O		DSM 1116			0.125 µg/mL
CCn1cc(C(=O)NCCNCCO)c(=O)c2cc(OC)c(OCc3cccc(F)c3)cc21		ATCC 25922		≥80% growth inhibition	< 0.25 µg/mL
CCCCO[C@H]1[C@H](O)[C@@H](N)[C@@H](O[C@H]2[C@H](O[C@@H]3O[C@H](CO)[C@@H](O[C@H]4O[C@@H](CN)[C@@H](O)[C@H](O)[C@H]4N)[C@H]3O)[C@@H](O)[C@H](N)C[C@@H]2N)O[C@@H]1CO	broth microdilution	clinical isolate AG 055			64 µg/mL
C/C(=N\Nc1nc(-c2ccc(Cl)cc2)cs1)c1ccc2c(c1)sc1nc(=O)c(C#N)cn12	microbial growth, broth dilution				< 29 µg/mL
C=CCO[C@H]1[C@H](O)[C@@H](N)[C@@H](O[C@H]2[C@H](O[C@@H]3O[C@H](CO)[C@@H](O[C@H]4O[C@@H](CN)[C@@H](O)[C@H](O)[C@H]4N)[C@H]3O)[C@@H](O)[C@H](N)C[C@@H]2N)O[C@@H]1CO	broth microdilution	clinical isolate AG 003			64 µg/mL
CCCCCCCCCCCN1C(=O)/C(=N\NC(=N)N)c2cc(C)ccc21	microbial growth, broth dilution		18 h		48 µg/mL

Repeated from above:
Structure (SMILES)	test	test system	setting	how to read	MIC
CO[C@H]1[C@H](O)[C@@H](N)[C@@H](O[C@H]2[C@H](O[C@@H]3O[C@H](CO)[C@@H](O[C@H]4O[C@@H](CN)[C@@H](O)[C@H](O)[C@H]4N)[C@H]3O)[C@@H](O)[C@H](N)C[C@@H]2N)O[C@@H]1CO	broth microdilution	clinical isolate AG 055			> 128 µg/mL
CCCCCCCCN1C(=O)/C(=N\NC(=N)N)c2cc(C)ccc21	microbial growth, broth dilution		18 h		12 µg/mL
COc1c(NC(=O)c2ccc(NC(=O)c3ccc(NC(=O)[C@H](CC#N)NC(=O)c4ccc(NC(=O)/C(C)=C/c5ccc(O)cc5)cc4)cc3)c(OC)c2O)ccc(C(=O)O)c1O		DSM 1116			0.125 µg/mL
CCCCCCCCCCCCCCN1C(=O)/C(=N\NC(=N)N)c2cc(C)ccc21	broth microdilution	25922	18 h, 37 °C		> 192 µg/mL
CC(C)=CCc1cc2c(cc1O)OCc1c-2oc2c(CC=C(C)C)c(O)ccc12		TISTR 780			128 µg/mL
